Results gathered from unrelated publications.
Lines come from different studies, so protocols differ. ± gives the spread as reported.
Sequence of UniProt P10632 (whole entry, looked up): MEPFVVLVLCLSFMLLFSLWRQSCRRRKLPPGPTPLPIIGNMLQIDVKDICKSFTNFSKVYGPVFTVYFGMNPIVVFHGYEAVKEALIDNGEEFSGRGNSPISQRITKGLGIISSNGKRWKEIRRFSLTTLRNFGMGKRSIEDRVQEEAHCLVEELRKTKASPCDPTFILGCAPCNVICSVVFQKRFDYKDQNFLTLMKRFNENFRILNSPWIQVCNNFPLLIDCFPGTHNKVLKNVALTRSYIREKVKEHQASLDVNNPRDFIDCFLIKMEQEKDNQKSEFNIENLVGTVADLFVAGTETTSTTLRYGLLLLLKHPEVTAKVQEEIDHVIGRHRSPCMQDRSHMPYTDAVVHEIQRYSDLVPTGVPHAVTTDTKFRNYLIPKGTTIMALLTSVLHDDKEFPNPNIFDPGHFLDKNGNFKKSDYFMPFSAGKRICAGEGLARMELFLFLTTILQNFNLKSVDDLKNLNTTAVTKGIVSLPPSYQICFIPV

Compound	target or system	test	test system	conditions	how to read	measurement	value
CSCC[C@H](NC(=O)CNC(=O)[C@H](CCCCN)NC(=O)[C@H](CC(C)C)NC(=O)[C@@H]1CCCN1C(=O)[C@H](CO)NC(=O)[C@H](Cc1c[nH]cn1)NC(=O)[C@H](Cc1c[nH]c2ccccc12)NC(=O)[C@H](CCCNC(=N)N)NC(=O)[C@H](CC(C)C)NC(=O)[C@H](CCCNC(=N)N)NC(=O)[C@H](Cc1c[nH]c2ccccc12)NC(=O)[C@H](CS)NC(=O)CCCCCNC(=O)CN1CCN(CC(=O)O)CCN(CC(=O)O)CCN(CC(=O)O)CC1)C(=O)O [copper-64 labelled]	–	ex vivo biodistribution	BALB/c nude mice, stomach	intravenous, dose not given, 1 h, Huh-7 tumour-bearing	–	tissue uptake	2.93 %ID/g
COc1ccccc1-c1n[nH]c2nc(NC3CCN(C(=O)Cc4ccc(F)cc4F)CC3)ncc12	–	bead binding, competition bead pull-down, item: LINJ.35.1490	Leishmania donovani axenic amastigote extract	10 µM	reference: vehicle	relative abundance	1.07
CC[C@H](C)[C@H](NC(=O)[C@H](CCCNC(=N)N)NC(=O)[C@H](CCCCN)NC(=O)[C@H](Cc1ccc(O)cc1)NC(=O)[C@H](CC(=O)O)NC(=O)[C@H](C)NC(=O)CNC(=O)CCOCCOCCOCCNC(=O)CN1CCN(CC(=O)O)CCN(CC(=O)O)CCN(CC(=O)O)CC1)C(=O)N[C@H](C(=O)N[C@H](C(=O)N[C@@H](CCCCN)C(=O)N[C@H](C(=O)N[C@@H](CC(N)=O)C(N)=O)C(C)C)C(C)C)[C@@H](C)O [copper-64 labelled]	–	ex vivo gamma counting	C57BL/6J male mice, B16-F10 tumour, blood	intravenous, 1.85 MBq, 20 min	–	tissue uptake	3.37 ± 0.27 %ID/g
C[C@H](O)[C@@H](NC(=O)[C@H]1CCCN1C(=O)[C@@H](CCCCN)NC(=O)[C@@H](CO)NC(=O)[C@@H](Cc1ccc(O)cc1)NC(=O)[C@@H](CC(N)=O)NC(=O)CCOCCOCCOCCNC(=O)CN1CCN(CC(=O)O)CCN(CC(=O)O)CCN(CC(=O)O)CC1)C(=O)N[C@H](CC(=O)O)C(=O)N[C@H](CCCNC(=N)N)C(=O)N[C@H](CCC(N)=O)C(=O)N[C@H](Cc1ccc(O)cc1)C(=O)N[C@H](Cc1c[nH]cn1)C(=O)N[C@H](Cc1ccccc1)C(N)=O [copper-64 labelled]	–	–	C57BL/6J mice, kidney	intravenous, 1.85 MBq, 1.333 h, radiolabelled	–	tissue uptake	28.5 ± 3.22 %ID/g
CN1Cc2cc(Cl)ccc2-n2c(nnc2C2CCN(c3cccc([18F])n3)CC2)C1	–	–	C57BL/6 mouse male, brain	intravenous, 3.7 MBq, 5 min	–	tissue uptake	0.77 ± 0.06 %ID/g
CC(C)(C)C(=O)OCOP(=O)(OCOC(=O)C(C)(C)C)C1CCCN(O)C1=O (stereo not drawn)	SN12C	–	–	–	–	CC50	> 100 µM
C[C@@H](c1ccc2nccn2c1)n1nnc2ncc(-c3cn[nH]c3)nc21	Cytochrome P450 2C8 (CYP2C8, Homo sapiens, UniProt P10632)	enzyme activity, inhibitor	human, liver microsomes	–	–	IC50	6.4 µM
CCCC[C@H]1C(=O)N(C)[C@@H](CCCC)C(=O)N[C@@H](CCCNC(=O)CN2CCN(CC(=O)O)CCN(CC(=O)O)CCN(CC(=O)O)CC2)C(=O)N[C@H](C(=O)NCC(N)=O)CSCC(=O)N[C@@H](Cc2ccc(O)cc2)C(=O)N(C)[C@@H](C)C(=O)N[C@@H](CC(N)=O)C(=O)N2CCC[C@H]2C(=O)N[C@@H](Cc2c[nH]cn2)C(=O)N[C@@H](CC(C)C)C(=O)N(C)CC(=O)N[C@@H](Cc2c[nH]c3ccccc23)C(=O)N[C@@H](CO)C(=O)N[C@@H](Cc2c[nH]c3ccccc23)C(=O)N1C [gallium-68 labelled]	–	–	NOD/SCID mice with CHO-hPD-L1 xenograft, heart	10 min post injection	–	tissue uptake	3.57 ± 0.21 %ID/g
CC[C@H](C)[C@H](NC(=O)[C@H](CCCCN)NC(=O)CNC(=O)[C@H](CC(C)C)NC(=O)[C@H](Cc1ccccc1)NC(=O)[C@H](CCCCN)NC(=O)[C@H](CO)NC(=O)[C@H](Cc1ccccc1)NC(=O)[C@H](Cc1c[nH]c2ccccc12)NC(=O)[C@H](CCC(N)=O)NC(=O)[C@@H](NC(=O)[C@H](Cc1ccccc1)NC(=O)CCCCCNC(=O)CN1CCN(CC(=O)O)CCN(CC(=O)O)CCN(CC(=O)O)CC1)C(C)C)C(=O)N[C@@H](CCC(=O)O)C(=O)N1CCC[C@H]1C(=O)N[C@@H](CC(=O)O)C(=O)N[C@H](C(=O)N[C@@H](CO)C(=O)N[C@@H](CCC(N)=O)C(=O)N[C@H](C(=O)N[C@@H](CCC(N)=O)C(=O)N[C@@H](CC(=O)O)C(=O)N1CCC[C@H]1C(=O)N[C@@H](CC(N)=O)C(=O)N[C@@H](CC(=O)O)C(=O)N[C@@H](CCC(N)=O)C(=O)N[C@@H](Cc1ccc(O)cc1)C(=O)N[C@@H](CCC(=O)O)C(=O)N1CCC[C@H]1C(=O)N[C@@H](Cc1ccccc1)C(=O)O)C(C)C)C(C)C [copper-64 labelled]	–	–	C57BL/6 male mouse, tumour-naive, lung	2 h	–	tissue uptake	6.88 ± 0.2 %ID/g
CC[C@H](C)[C@H](NC(=O)[C@H](CCCNC(=N)N)NC(=O)[C@H](CCCCN)NC(=O)[C@H](Cc1ccc(O)cc1)NC(=O)[C@H](CC(=O)O)NC(=O)[C@H](C)NC(=O)CNC(=O)CCOCCOCCOCCNC(=O)CN1CCN(CC(=O)O)CCN(CC(=O)O)CCN(CC(=O)O)CC1)C(=O)N[C@H](C(=O)N[C@@H](CC(C)C)C(=O)N[C@@H](CCCCN)C(=O)N[C@H](C(=O)N[C@@H](CC(N)=O)C(N)=O)C(C)C)[C@@H](C)O [copper-64 labelled]	–	ex vivo gamma counting	C57BL/6J male mice, B16-F10 tumour, blood	intravenous, 1.85 MBq, 20 min	–	tissue uptake	2.31 ± 1.01 %ID/g
CC[C@H](C)[C@H](NC(=O)[C@@H](Cc1c[nH]c2ccccc12)NC(=O)[C@@H]1CCCN1C(=O)[C@H](CCCCN)NC(=O)[C@H](CCCCN)NC(=O)CCNC(=O)CCNC(=O)CN1CCN(CC(=O)O)CCN(CC(=O)O)CCN(CC(=O)O)CC1)C(=O)N[C@@H](C[Si](C)(C)C)C(=O)O [gallium-68 labelled]	–	–	nude mouse HT-29 xenograft, blood	90 min	–	tissue uptake	0.18 ± 0.08 %ID/g
O=C1NC2(CC2)COc2ncc(F)cc2[C@H]2COCCN2c2ccn3ncc1c3n2	–	–	Sprague-Dawley rat, female, spleen	oral, 5 mg/kg/day, 4 weeks, end of treatment	–	organ-to-body weight ratio	0.305 ± 0.041%

Excerpt of the above:
Compound	target or system	test	test system	conditions	how to read	measurement	value
CC[C@H](C)[C@H](NC(=O)[C@H](CCCNC(=N)N)NC(=O)[C@H](CCCCN)NC(=O)[C@H](Cc1ccc(O)cc1)NC(=O)[C@H](CC(=O)O)NC(=O)[C@H](C)NC(=O)CNC(=O)CCOCCOCCOCCNC(=O)CN1CCN(CC(=O)O)CCN(CC(=O)O)CCN(CC(=O)O)CC1)C(=O)N[C@H](C(=O)N[C@H](C(=O)N[C@@H](CCCCN)C(=O)N[C@H](C(=O)N[C@@H](CC(N)=O)C(N)=O)C(C)C)C(C)C)[C@@H](C)O [copper-64 labelled]	–	ex vivo gamma counting	C57BL/6J male mice, B16-F10 tumour, blood	intravenous, 1.85 MBq, 20 min	–	tissue uptake	3.37 ± 0.27 %ID/g
